Experimental data from different studies.
Each line is one published result; not all experiments were run side by side. Numbers after ± are the reported error.

| SMILES | host | sample | route | dose | time | setting | Cmax [ng/mL] |
| --- | --- | --- | --- | --- | --- | --- | --- |
| Cn1cc(C(N)=O)c(NC2C3CC4CC2CC(OS(=O)(=O)O)(C4)C3)c2ccnc1-2 (centres unmarked) | Japanese adults, moderate hepatic impairment | plasma | oral | 150 mg single dose | – | – | 110 |
| Cc1cc(O)c2c(c1)C(=O)c1cc(O)cc(O)c1C2=O.Cc1cc(O)c2c(c1)C(=O)c1cc(O)cc(O)c1C2=O.Cc1nc(C)c(C)nc1C | Sprague Dawley rat | plasma | oral | 100 mg/kg | – | – | 428 ± 134 |
| CONC(=O)/C=C/c1cccc(S(=O)(=O)Nc2ccccc2)c1 | patients with moderate liver dysfunction | plasma | intravenous | 400 mg/m^2 belinostat | – | single 30 min infusion, cycle 1 day -7, mean | 3260 |
| Cc1noc(C)c1Cn1cc(N2C(=O)CN(Cc3cccc(OS(=O)(=O)O)c3)C2=O)cn1 | rat Sprague-Dawley male | plasma | oral | 10 mg/kg of parent drug | – | – | 2600 |
| COc1ccc(N2CCOCC2)c2sc(NC(=O)c3ccnc(CN4CCCC4)c3)nc12 | Wistar rat | plasma (total) | oral | 45 mg/kg/day | 14 days | – | 26400 |
| COc1cc(C=CC(=O)OCC2OC(OC3C(c4c(OC)cc5oc(-c6ccc(O)cc6)cc(=O)c5c4O)OC(CO)C(O)C3O)C(O)C(O)C2O)ccc1O (centres unmarked) | male Sprague-Dawley rat, PCPA-induced insomnia | plasma | oral | 6.8 g/kg | – | – | 12.7 ± 4.03 |
| CC/C=C\C/C=C\C/C=C\C/C=C\C/C=C\CCCCOC(CC)C(=O)O (centres unmarked) | Wistar rat, male | portal vein plasma | oral | 100 mg/kg | – | – | 17600 |
| Cc1cc2c(NC(=O)N[C@@H]3CC(C)(C)Oc4cc(C(F)(F)F)ccc43)cccc2cn1 | Sprague-Dawley rat, male | plasma | oral | 100 µmol/kg | 1 h | telemetry study | 3100 |
| N[C@H](COc1ccccc1C(F)(F)F)c1ccccc1 | male Sprague-Dawley rat | serum | oral | 25 mg/kg | – | – | 226 ± 15 |
| CN1CCN(c2ccc(Nc3ncc(Cl)c(Nc4ccccc4P(C)(C)=O)n3)cc2Br)CC1 | male Sprague-Dawley rat | plasma | oral | 25 mg/kg | – | – | 210 |
| CC(C)CNC(=O)/C=C/CCc1ccc2c(c1)OCO2 | rat, sham-operated | plasma | oral | 50 mg/kg | – | – | 73.4 ± 36.2 |
| CC1(C)C2CCC1(C)C(OC(=O)/C=C/c1ccc(O)c(O)c1)C2 (centres unmarked) | Sprague-Dawley rat | plasma | oral gavage | 30 mg/kg | – | – | 409 ± 92.9 |
| Cc1ccc(/N=N/c2c(O)ccc3ccccc23)c(C)c1 | Sprague-Dawley rats both sexes | whole blood | oral | 50 mg/kg | – | – | 696 |
| C=C(c1ccc(C(=O)O)c(F)c1)c1cc2c(cc1C)C(C)(C)C=CC2(C)C | rat Sprague-Dawley male | plasma | oral | 100 mg/kg | – | sesame oil | 18600 |

A few entries again:
| SMILES | host | sample | route | dose | time | setting | Cmax [ng/mL] |
| --- | --- | --- | --- | --- | --- | --- | --- |
| Cc1ccc(/N=N/c2c(O)ccc3ccccc23)c(C)c1 | Sprague-Dawley rats both sexes | whole blood | oral | 50 mg/kg | – | – | 696 |
| C=C(c1ccc(C(=O)O)c(F)c1)c1cc2c(cc1C)C(C)(C)C=CC2(C)C | rat Sprague-Dawley male | plasma | oral | 100 mg/kg | – | sesame oil | 18600 |
